# Results of several laboratories.
# A part holds a random share of what one study measured.

# Study 1 — technique: universal PBM; form: double-stranded DNA, one strand shown; matrix: in vitro; tested at: 600 nM; direction: higher = stronger binding
# Target: Sal-like protein 4, full length isoform A (SALL4, Homo sapiens, UniProt Q9UJQ4, residues 1-1053)
# Chain of UniProt Q9UJQ4 (whole entry, looked up): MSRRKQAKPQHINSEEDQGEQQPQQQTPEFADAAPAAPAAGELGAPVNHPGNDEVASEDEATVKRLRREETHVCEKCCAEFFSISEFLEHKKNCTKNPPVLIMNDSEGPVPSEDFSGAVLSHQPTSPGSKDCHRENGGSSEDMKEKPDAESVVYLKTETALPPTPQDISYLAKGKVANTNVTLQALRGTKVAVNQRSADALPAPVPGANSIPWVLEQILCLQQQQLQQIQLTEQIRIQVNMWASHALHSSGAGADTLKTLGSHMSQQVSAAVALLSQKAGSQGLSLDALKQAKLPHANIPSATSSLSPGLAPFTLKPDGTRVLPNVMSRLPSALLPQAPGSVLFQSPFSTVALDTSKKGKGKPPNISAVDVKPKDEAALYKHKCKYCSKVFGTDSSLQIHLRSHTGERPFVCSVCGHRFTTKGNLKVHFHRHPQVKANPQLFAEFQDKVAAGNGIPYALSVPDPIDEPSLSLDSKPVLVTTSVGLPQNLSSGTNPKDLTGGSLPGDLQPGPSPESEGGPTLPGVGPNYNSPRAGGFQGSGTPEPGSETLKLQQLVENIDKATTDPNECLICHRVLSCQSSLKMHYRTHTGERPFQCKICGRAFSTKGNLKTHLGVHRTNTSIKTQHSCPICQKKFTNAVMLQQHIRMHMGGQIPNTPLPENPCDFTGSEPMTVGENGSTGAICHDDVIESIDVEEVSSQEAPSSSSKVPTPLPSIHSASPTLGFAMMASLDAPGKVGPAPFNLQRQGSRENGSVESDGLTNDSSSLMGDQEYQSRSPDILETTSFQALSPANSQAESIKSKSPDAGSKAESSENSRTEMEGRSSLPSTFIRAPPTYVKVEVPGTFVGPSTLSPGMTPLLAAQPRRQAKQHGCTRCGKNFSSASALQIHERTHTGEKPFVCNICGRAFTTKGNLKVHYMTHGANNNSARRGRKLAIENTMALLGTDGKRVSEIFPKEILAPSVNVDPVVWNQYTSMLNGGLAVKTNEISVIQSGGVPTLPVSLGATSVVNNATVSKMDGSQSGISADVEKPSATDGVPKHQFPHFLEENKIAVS
# Setting: 8-mer, flanks averaged, mean of replicates
Strand,E-score
GGAGTCTA,-0.0961
AGGACGCG,-0.188
AACAAACA,0.21
CTGCGTCC,-0.296
CAGAAATC,0.0542
GGTTCCTA,-0.0965
TAAAACAA,0.321
TACATGAA,0.294
ACTTAGAA,-0.0124
CCGGGAGG,-0.338
CGCCACGC,-0.335
AGTGGTTC,-0.0866
ATTCGAAG,0.0612
CCTCTGGC,-0.077
ATTTTGAG,0.227
ACCTACAT,0.157
AGCACGAG,0.0265
GGTCGCTA,-0.178

# Study 2 — technique: RNA Bind-n-Seq; form: RNA; matrix: in vitro; tested at: 200 nM; setting: whole 134-nt RNA, ends assumed; together with: 150 mM KCl; relative to: input library; direction: higher = stronger binding
# Target: Fragile X messenger ribonucleoprotein 1, C-terminal low-complexity region (Fmr1, Mus musculus, UniProt P35922)
# Shared flanks, not repeated: GGGAGUUCUACAGUCCGACGAUC … UGGAAUUCUCGGGUGUCAAGG
Strand,log2 enrichment
ACCAUGCAGGUGGGCAUCUUUGGGAAGUGGGGCAAGGGGGGGAUACGGAGGGGGGUAACACUUUGGGAACAGGUGGUCCCAGGUCGUUUC,0.601
AAGUCCUGUGCUACACAUCGUAUGUACCGAAUCGGGUUUUUGGGUUUUUGGGAGGGAAAGUAUUAUGUUACGCCGUUCGGAUCUGCACUU,0.716
UAACUUUAGAGGGGGAUCUGAUGGAUAUGGCAGUGGACGUGGAUUUGGGGAUGGCUAUAAUGGGUAUGGAGGAGGACCUGGAGGUGGCAA,0.445
AAGUCCUGUGCUACACAUCGUAUGUACCGAAUCGGAAAGGAAAAAGGAAAAAAAGGAAAGUAUUAUGUUACGCCGUUCGGAUCUGCACUU,-0.914
UCAAGUCCUGUGCUACACAUCGUAUGUACCGAAUCGGGAGGGUUUUUGGGUGGGAAAGUAUUAUGUUACGCCGUUCGGAUCUGCACUUCC,1.03
UCAAGUCCUGUGCUACACAUCGUAUGUACCGAAUCGGGUGGGAAAAAGGGUGGGAAAGUAUUAUGUUACGCCGUUCGGAUCUGCACUUCC,1.05
CACAGACAACACGCACCCACACAGACACAGAGGGAAGGGGUUGGGAUGGGGACAGGGUGCACAGCAGGGCCGGGUAGGACCCCAGCCCCU,1.39
AGUCCUGUGCUACACAUCGUAUGUACCGAAUCGGGAAAAGGGGAAAAGGAAAAGGGGAAAGUAUUAUGUUACGCCGUUCGGAUCUGCACU,0.19
CCUGUGCUACACAUCGUAUGUACCGAAUCGGGGCCCCCCGGCCCCCCGGGGCCCCCCGGGAAAGUAUUAUGUUACGCCGUUCGGAUCUGC,-0.388

# Study 3 — technique: protein-binding microarray; form: double-stranded DNA, one strand shown; matrix: in vitro; tested at: 0.8 µM; setting: whole 60-bp probe, no competitor; direction: higher = stronger binding; shared flanks, not repeated: … GTCTTGATTCGCTTGACGCTGCTG
# Target: Centromere-binding protein 1, full length, N-terminal tag (CBF1, Saccharomyces cerevisiae, UniProt P17106, residues 1-351)
# Chain of UniProt P17106 (whole entry, looked up): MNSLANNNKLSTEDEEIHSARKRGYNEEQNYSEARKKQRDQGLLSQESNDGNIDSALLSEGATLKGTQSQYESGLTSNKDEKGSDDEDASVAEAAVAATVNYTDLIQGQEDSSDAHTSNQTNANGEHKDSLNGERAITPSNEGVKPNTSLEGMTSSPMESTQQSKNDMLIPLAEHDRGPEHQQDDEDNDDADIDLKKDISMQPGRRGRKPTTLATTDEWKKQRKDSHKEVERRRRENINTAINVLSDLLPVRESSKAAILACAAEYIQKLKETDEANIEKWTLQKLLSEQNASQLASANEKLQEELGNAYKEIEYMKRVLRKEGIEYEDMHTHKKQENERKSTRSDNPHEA
Strand,fluorescence intensity [a.u.]
CTATGAGTACTTCCTCACCTGATCCAATCGGTTTTC,872
CTAGCAATTTCCCATAGTCTCATGAAAATTCCTTTC,532
CCTAACTACTATAACTACGTGCCATAGCTTCGTACA,654
CTATTTTTTAAATCTCACGTTATTTTTCATTTATTC,655
GAATCCAAATCTGATCACGTTAGGAAATATACATAG,1640
TGTACGAAGCTATTTAATGTGATTATAGTAGTTAGG,540
CTAATCATAAATCAGCACGCAAACGGTAAAGAATTC,524
CTATAAGAATTTCACCACGACATCGAAATGTAATTC,524
CTACTTCCTATTTCTGATGCATTGAACAGATCGTTC,586
TGTACGAAGCTATGACACCTGAGTATAGTAGTTAGG,544
CTATGGTGCTTGAATCTGATGAGAAACTGAATGTTC,548
CTAATGGAAAACCGTCATCAGATTTAATGGGGCTTC,521
CCTAACTACTATAATCACCCCGCATAGCTTCGTACA,508
GAATAAACTTCCTACCCCGTGTTATTAAGATCATAG,690
GAACGTTTACCGTTTCGCGTGATCAACATCACATAG,1200
GAATTCGACACAGATCATGTGCTTGTTTCTCGTTAG,1920
CTAGCAGTGGGTCGTGACATGAATATTCAAAAGTTC,1420
CTAAATCGACCTTATGATCATGTGGATTATCGGTTC,1450
GAATTATATATTACAGGTGATATTTGTATATGATAG,658

# Study 4 — technique: RNA Bind-n-Seq; form: RNA; matrix: in vitro; tested at: 365 nM; relative to: no-protein control; direction: higher = stronger binding
# Target: RNA binding protein fox-1 homolog 2, RRM domain, GST-SBP tag (RBFOX2, Homo sapiens, UniProt O43251-10, residues 100-194)
# Setting: natural RNA segment, single round, ends assumed
# Shared flanks, not repeated: GGGAGUUCUACAGUCCGACGAUC … UGGAAUUCUCGGGUGCCAA
# Construct (chain): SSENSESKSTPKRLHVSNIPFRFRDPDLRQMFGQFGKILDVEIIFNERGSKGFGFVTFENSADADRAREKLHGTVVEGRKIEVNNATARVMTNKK
Strand,RBNS enrichment (R)
CUGAUAUUAUAAGCUUAAAACUAUCUUGAGGGGGAAAUGACUUCUUUUCUCCUUCUGUCCCUUUUCUCAAAAGCAUCUUUCCCCCAAAUGUAUGUCUCUAGGACAUUUUA,0.553
GUGUUGUGUAUGGGCUGCUAAUUGUUAUGAAUAAAAUACCCAACCCUAGGCUGCAGAGAAGCCCGUCCAUUUGGUCUAACCUGAGUCUCUGCGCUACACCUCACAAGCAC,0.877
CCCAUUCACUGGGGUCAGGUGGCAGUUGACAUCUUGGUUAUAAGUAUGCAUGCAGGUAACAAGAGUGAAAGCAGAGCUGACAUUUGCCAGGCUUUCCUGGAGCAGGCCAG,23.4
AGUGCUCACAGUACUCAUGUGGGGCAGCCACACUAACUGCAUUAGCAGUGUGGUUACUUCUUUCUUCUGCCUCGACUCACAUGGCUUCUCCCCACGAAGGUCCCAGGGUG,0.337
CCUCAGCCUGUGGGUGGCACGAGCAAGGACUGACAUCCGCACAGGGAGGAUUGUCUGUUUGGCUGACACAGCAGCAGCCCUUCCCACCCAGCCACCUUCCUCACAGGGAC,0.747
CUUUCAUCCCUCCUUCUAGGGCCUAUGGCAGUUCUCCCAGGAUGUGUGGCGAGAGCCUGGGCCAGCCCACAGCGUUCCUAGUCAGGCAGCCACACCUUGGUCCUCAUCUU,0.804
CUAAUGCUUAUUCUGUUAAUGUAAACUUUUGAAGAUCUUAAGUGUAUUGCUCUUUCAUCUUAAACACUUUCGAGGAUUUGCAGUGCGUCUAGCACCUAGAUUACAGCCAG,0.431
UAUAGAUUUAGCUAUUUAUUGUUCGAUGCCUGCAUGCUGAAACAAUGCCUACAGCUGUCUUCACAUGUAUGGACGUGUGUGAAUGGUUGUACGUUUUGCACAUUUUGUGG,1.56

# Study 5 — technique: protein binding microarray; form: double-stranded DNA, one strand shown; matrix: in vitro; tested at: not given; relative to: not given; direction: higher = stronger binding
# Target: Histone acetyltransferase KAT6A, winged helix 1, GST fusion (KAT6A, Homo sapiens, UniProt Q92794, residues 1-85)
# Setting: 8-mer, flanks averaged, mean of 2 arrays, mostly near background
# Residues (chain): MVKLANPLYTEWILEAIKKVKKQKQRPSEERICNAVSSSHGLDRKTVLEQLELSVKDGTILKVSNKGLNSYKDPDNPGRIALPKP
Strand,E-score
GTACGGCA,0.391
AGGAGCTG,-0.265
CTAGCATA,-0.0274
CAGTCCGC,0.17
ATGGATAA,-0.209
CGATAGGA,0.0377
ATACTGGA,-0.215
AGAGCACT,-0.22
TATCCCGA,0.0469
ATCCCAAT,-0.157
GGCCGGGA,0.326
AAATGAAC,-0.177
ACGCACTG,0.0387
ACCAACTG,-0.101
GGGATCCA,0.123
ATGGGTAG,-0.152
AAGCAATA,-0.142
AGCTGAGA,-0.195
CACAGGCC,-0.108
CGCTTTCC,0.29
CTGTTAAG,-0.158

# For quick reference, copied from above (study 1):
Strand,E-score
GGAGTCTA,-0.0961
AGGACGCG,-0.188
AACAAACA,0.21
CTGCGTCC,-0.296
CAGAAATC,0.0542
GGTTCCTA,-0.0965
TAAAACAA,0.321
TACATGAA,0.294
ACTTAGAA,-0.0124
CCGGGAGG,-0.338
CGCCACGC,-0.335
